Assay results collected from several papers.
Lines come from different studies, so protocols differ.
Target: Albumin (ALB, Homo sapiens, UniProt P02768)

For `Cc1c(C)c(C)[c-](C)c1C.[C-]#[O+].[C-]#[O+].[C-]#[O+].[Cl-].[Cl-].[Cl-].[Ir+3].[Re+].c1cnc(-c2ncccn2)nc1`, “number of binding sites” read 1.16 (tryptophan fluorescence quenching; concentration not given).
The binding constant of `O=C(/C=C/c1ccc(O)c(O)c1)NCCCCCCCC[P+](c1ccccc1)(c1ccccc1)c1ccccc1` is reported as ~10 1.000e+04 M⁻¹ (fluorescence quenching).
Under “random coil content”, `CCCNCC(=O)O` is recorded as 32.8% (circular dichroism; 0.6 mM).
With `O=C([O-])CN1CCN(CC(=O)[O-])CCN(CC(=O)c2ccc(-c3ccc(OCC(=O)O)cc3)cc2)CCN(CC(=O)[O-])CC1.[Gd+3]` the relaxivity increase was roughly 110% (25 °C, 60 MHz, together with: HSA 0.6 mM; reference: HEPES buffer).
`Cc1cnc2c(c1)NC(=O)c1cccnc1N2C1CC1`: “Gibbs free energy of binding” -4.66 kcal/mol (isothermal titration calorimetry; 298 K).
`O=S([O-])c1ccccc1N=Cc1ccccc1[O-].[Cu+2].c1c[nH]cn1`: “number of binding sites” 0.9 (fluorescence quenching; concentration not given).
`Cc1ccc(C(C)C)cc1.[C-]#[O+].[C-]#[O+].[C-]#[O+].[Cl-].[Cl-].[Cl-].[Re+].[Ru+2].c1cnc(-c2ncccn2)nc1`: “number of binding sites” 1.12 (tryptophan fluorescence quenching; concentration not given).
`CCCCCC(C)NCC(=O)O` (centres unmarked) has a α-helix content of 52.6% (circular dichroism; 0.6 mM).

A few entries again:
`Cc1ccc(C(C)C)cc1.[C-]#[O+].[C-]#[O+].[C-]#[O+].[Cl-].[Cl-].[Cl-].[Re+].[Ru+2].c1cnc(-c2ncccn2)nc1`: “number of binding sites” 1.12 (tryptophan fluorescence quenching; concentration not given).
